# Results pooled from the literature.
# Each numbered part is a random draw from the data of one study; scales do not carry over between parts.

# Sample 1 — method: universal PBM; form: double-stranded DNA, one strand shown; matrix: in vitro; concentration: 600 nM; reading: higher = stronger binding
# Target: Sal-like protein 4, full length isoform A (SALL4, Homo sapiens, UniProt Q9UJQ4, residues 1-1053)
# UniProt Q9UJQ4, sequence (whole entry, looked up): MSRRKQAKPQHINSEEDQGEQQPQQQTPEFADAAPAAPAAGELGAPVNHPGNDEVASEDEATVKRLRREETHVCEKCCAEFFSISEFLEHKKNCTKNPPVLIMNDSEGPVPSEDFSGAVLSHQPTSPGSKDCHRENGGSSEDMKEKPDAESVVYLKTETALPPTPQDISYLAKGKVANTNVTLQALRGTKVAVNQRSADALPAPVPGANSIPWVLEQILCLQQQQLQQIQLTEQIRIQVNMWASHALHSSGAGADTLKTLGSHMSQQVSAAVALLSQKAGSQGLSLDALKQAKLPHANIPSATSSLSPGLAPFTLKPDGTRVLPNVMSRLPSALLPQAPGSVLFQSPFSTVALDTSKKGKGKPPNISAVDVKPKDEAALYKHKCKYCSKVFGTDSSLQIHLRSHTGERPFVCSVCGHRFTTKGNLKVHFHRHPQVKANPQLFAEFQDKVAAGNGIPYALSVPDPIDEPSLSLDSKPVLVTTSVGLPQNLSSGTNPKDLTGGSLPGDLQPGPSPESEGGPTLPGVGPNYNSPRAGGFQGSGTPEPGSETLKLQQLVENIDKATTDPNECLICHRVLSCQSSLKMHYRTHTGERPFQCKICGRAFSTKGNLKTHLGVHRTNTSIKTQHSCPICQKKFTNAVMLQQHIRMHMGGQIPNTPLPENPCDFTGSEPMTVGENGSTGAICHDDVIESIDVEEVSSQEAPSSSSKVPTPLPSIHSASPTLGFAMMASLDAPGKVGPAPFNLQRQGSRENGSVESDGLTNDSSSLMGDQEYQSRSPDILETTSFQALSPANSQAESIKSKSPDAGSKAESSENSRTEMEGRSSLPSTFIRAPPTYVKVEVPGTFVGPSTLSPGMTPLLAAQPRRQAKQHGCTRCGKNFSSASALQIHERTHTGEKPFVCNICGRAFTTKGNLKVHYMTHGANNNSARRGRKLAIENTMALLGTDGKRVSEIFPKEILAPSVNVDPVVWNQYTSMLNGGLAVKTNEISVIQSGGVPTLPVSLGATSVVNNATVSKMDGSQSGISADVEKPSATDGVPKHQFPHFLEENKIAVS
# Setting: 8-mer, flanks averaged, mean of replicates
Oligonucleotide,E-score
CCGCAAGA,-0.091
GAGGGCAC,-0.265
CGCTCGAA,-0.035
AGGTAAGC,-0.137
ACCAATTG,0.0478
CAGGTGGC,-0.206
GCTCTCAA,-0.137
CAAAACTG,0.157
AGTCGAGC,-0.314
AACGCCTT,-0.0208
AAACATAC,0.169
ACTGCCCG,-0.2
AATCGCGA,-0.00715
ACTGAGTA,0.0569
ATCGCCAA,-0.0431
ACAATATC,0.339
AGACCTCA,-0.145
CAGCGACG,-0.283
AAAGTGAT,0.187
AGTACCTG,0.0783
ACAATACA,0.202
AACCCGCA,-0.124
ACGCGGCT,-0.121
GCAGTACA,-0.14
GGAAGGTA,0.0554

# Sample 2 — method: protein binding microarray; form: double-stranded DNA, one strand shown; matrix: in vitro; concentration: not given; reference: not given; reading: higher = stronger binding
# Target: Histone acetyltransferase KAT6A, both winged helices, GST fusion (KAT6A, Homo sapiens, UniProt Q92794, residues 1-181)
# Setting: 8-mer, flanks averaged, mean of 2 arrays, mostly near background
# Residues (chain): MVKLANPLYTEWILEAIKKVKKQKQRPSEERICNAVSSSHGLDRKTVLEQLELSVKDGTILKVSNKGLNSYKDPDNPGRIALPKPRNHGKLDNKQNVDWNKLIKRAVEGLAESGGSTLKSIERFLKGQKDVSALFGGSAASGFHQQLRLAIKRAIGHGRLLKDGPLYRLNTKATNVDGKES
Oligonucleotide,E-score
CAGACCGG,0.227
AGAGGGGG,-0.334
GCTAGTAC,0.0579
AACCTGCT,-0.268
AAAGGGTC,-0.0196
AGATTATA,-0.0726
ACATGGTC,-0.0528
CAGCGTAC,0.203
CATCTTCC,0.00464
CATCCCTC,-0.21
TATGCAGA,-0.165
CCCGAACG,0.131
AGTTCGGC,0.0742
ACAGTGTG,-0.0622
ATGCCCGC,0.228
AGTTTTCG,-0.102
GCATTAGC,0.0564

# Sample 3 — method: RNA Bind-n-Seq; form: RNA; matrix: in vitro; concentration: 365 nM; reference: no-protein control; reading: higher = stronger binding
# Target: RNA binding protein fox-1 homolog 2, RRM domain, GST-SBP tag (RBFOX2, Homo sapiens, UniProt O43251-10, residues 100-194)
# Setting: natural RNA segment, single round, ends assumed
# Constant ends, left off below: GGGAGUUCUACAGUCCGACGAUC … UGGAAUUCUCGGGUGCCAA
# Target sequence (chain): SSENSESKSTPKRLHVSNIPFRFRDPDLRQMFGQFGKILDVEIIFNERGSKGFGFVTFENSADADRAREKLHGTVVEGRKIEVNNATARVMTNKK
Oligonucleotide,RBNS enrichment (R)
CCUUUCAGCUACUACGUUACCACGUUCCUAAAACGCAAGCUCUCCGGACCAGACGGACACAGGGAGAAGCUAGUUUCUUUCAUGUGAUUGAAAUGAUGACUCUACUCCUA,0.355
ACACCAUCCAGUAUUCAAAGCAUCCCCCGCCGUUGUGCCACUUUUGCCCACCUCUUCUGCGUGCCCCUCUUCUGUCUCAUAGUUGUGUUAAGCUUGCGUAGAAUUGCAGG,1.24
UGGCAAAUUUUUAUUUUAAAAGUAUUCUUACAGAAGAGUUCCAUUUAAGAAUGUUCACUUAUAGGACCAAAAUAUAAAUAAAAACUUUCAAAUAUGUUUGAUUUUAAAUU,0.676
UCCUGGGUUACCCUGGAUACCCCGAUGAACAGGAAAUCAAUGCCUGAGGCUGACUUCAGCUCCUGGACACCCUUAGAAUUCCUAGUUGGAACUUUCCAUGACUGGAUCAC,0.401
UGAUGGGCAGGCAUUUCCCUGGAAAGGGGGUGAACUACCUACCUCUCCUCAAGACAGCCGAAGGGUGGGAUUGGUGCCGCUCUGGGAAGCGUGGCCCCAGGAGUUUUGUC,0.328
AGAACGUAUAAUCAACUUUGUUGAAUAAUUUGUUCUAUUAAGGCUGUCUAAAGUAUGUGAUGUCUUCAUCAUAGUAUGAAGUGUUGAAAAUUAAUAACGAGCCUAGUUUA,0.326
CCAUGUUUGUUUGAGGUAGAAGAAUCACCAUAUAAUUCGUUGCCCAAAUUGGGACUAUUGAGAGAGAAAGGGGAUGCUAUUAAUUACACCAGAUCAAAAGGCAUAAACCA,0.458
CUGGACCAUUCCUGUCCCUUUGUUACCAUACUGUCUCUGGAGUGAUGGUGUCCUUCCCUGCCCCACCACGCAUGCUCAGUGCCUUUUGGUUUCACCUUCCCUCGACUUGA,12.1
UGACACUGAGCAGGCAGAUUAGCAAUCUCCCAGGUCAUGCAGCAUCUUGAAACAAAGUAAGAAUUCUGAUUCCCAAAAAUAACAAAUUUAAGUGUAUACUUUAGCAGGUG,1.73
UUGUUUAGGAAUAGCUACAUACCGAAGGGCUUCUAUACAUGAAUUCUAGGGGCAAAAGCCUUUUGUAGAAACCUGCACACUGCAUUCCAUCUGGGUUUUAAGUUCAGAUG,0.447
UGCUGUAGGAUUAAUUCGAAAAUAGGCAGAAUUCCAUUCCUCCCAAGGUGGCAAAAAUUAGCUAUACUGAUGUAAUUGUCAUUUACCUGGGUAUGAAUUCCCUGACACAC,0.428
AAGCUCUUGGCUUGGAGUCCCGUGUCGUCUCCACCCAGAGGAAGUUCUCCAGAGUUCACCUUUCCCUUUUCCUUGAGUUGUGCUGAAUGCCCCACCCCAGCUCUCUUUCC,1.12

# Single results of other studies
Substance,target,assay,system,setting,how to read,endpoint,value
"PhoQ, residues 284 288 289 292 302 303 SCEHLI","PhoP, residues 12 14 15 18 19 VHTVL (Escherichia coli, UniProt P23836)","Sort-seq, item: YFP reporter",E. coli,"PhoQ-PhoP variant library, added: 10 µM Mg2+","reference: high Mg2+ state, higher = stronger signaling",fold induction,7.15

# Excerpt of the above (sample 2):
Oligonucleotide,E-score
CATCTTCC,0.00464
ACATGGTC,-0.0528
AAAGGGTC,-0.0196
AGTTTTCG,-0.102
CCCGAACG,0.131
AGAGGGGG,-0.334
AGTTCGGC,0.0742
GCATTAGC,0.0564
